Results pooled from the literature.
Protocols differ between the studies behind these lines. “And” joins repeats or separate records; there may be more than shown. ± gives the spread as reported.

Compound | assay | system | conditions | half-life
Cc1cccc(C)c1OCC(=O)N[C@@H](Cc1ccccc1)[C@H](C[C@H](Cc1ccccc1)NC(=O)[C@H](C(C)C)N1CCCNC1=O)OC(=O)[C@@H](N)CC(C)C |  | DPBS | 50 µM, pH 5.5, 37 °C | 20 ± 0.3 h
CC(C)[C@@H]1NC(=O)[C@@H](NC(=O)[C@H](Cc2ccc(O)cc2)NC(=O)[C@@H]2CCCN2C(=O)[C@H](C)N)CSSC[C@@H](C(=O)O)NC(=O)[C@H](CO)NC(=O)[C@H](Cc2c[nH]c3ccccc23)NC(=O)[C@H](CO)NC(=O)CNC(=O)[C@H](CCCNC(=N)N)NC(=O)[C@H](Cc2ccc(O)cc2)NC1=O | residual EphA4 binding inhibition | PC-3 conditioned medium | 200 µM, 37 °C | 8 to 12 h
Cn1cc(C(N)=O)c(NC2C3CC4CC2CC(O)(C4)C3)c2ccnc1-2 (stereo not drawn) |  | Japanese adults, mild hepatic impairment, plasma | oral, 150 mg single dose | 10.7 h
CCCN1C(=O)CCc2cc(NS(=O)(=O)Cc3ccc(C)cc3)ccc21 | LC-MS | water under UV light 8 W | 100 µM | 2.9 h
COc1cc(-c2nc3ccc(C(=O)NCCCN4CCN(c5cccc(C)c5C)CC4)cc3n2C2CCC2)cc(OC)c1OC |  | human liver microsomes |  | < 0.5 h
CO[C@@H](C[C@H]1C(C)=CC[C@@H]2[C@]3(C)C[C@H](O[C@@H]4O[C@@H](C)[C@H](O)[C@@H](O)[C@H]4O)[C@@H](O)C(C)(C)[C@H]3CC[C@]21C)[C@H](N)C(=O)O |  | simulated gastric fluid with pepsin | 1 µM, pH 1.2, 37 °C | > 8 h
CC(C)[C@H](NC(=O)CNC(=O)[C@H](CCC(N)=O)NC(=O)[C@H](C)N)C(=O)O |  | healthy volunteers, LPS endotoxaemia, plasma | intravenous, 15 mg/kg/h, 2 h infusion, geometric mean, added: LPS 2 ng/kg | 0.15 h
CC[C@@H](NC(=O)[C@H](CC(C)C)NC(=O)NCc1ccccc1)C(=O)C(=O)NCc1cccc(Cl)c1OC | epimerization to active isomer | PBS | 100 nM, room temperature | ~0.25 h
CC(C)C[C@H](NC(=O)[C@@H](N)Cc1c[nH]cn1)C(=O)N1CCC[C@H]1C(=O)N[C@@H](CO)C(=O)N[C@@H](Cc1ccc(O)cc1)C(=O)N[C@@H](CO)C(=O)N1CCC[C@H]1C(=O)N[C@@H](CO)C(=O)N1CCC[C@H]1C(=O)N[C@@H](CCC(N)=O)C(=O)O |  | human plasma | 0.1 mg/mL, 37 °C | 1.1 ± 0.0632 h
CC[C@H](C)[C@H](NC(=O)CNC(=O)CNC(=O)c1ccc2c(c1)C(=O)OC21c2ccc(O)cc2Oc2cc(O)ccc21)C(=O)N[C@@H](Cc1ccc(O)cc1)C(=O)N[C@@H](C)C(=O)N(C)CC(=O)N1CCC[C@H]1C(=O)N(C)[C@@H](Cc1ccccc1)C(=O)N[C@@H](CCCCN)C(=O)N[C@@H](CCCCN)C(=O)N[C@@H](CCCCN)C(=O)N[C@@H](C)C(N)=O | CE-LIF | Baf/BCR-ABL cell cytosolic lysate | 1 µM, pH 7.4, 37 °C | 0.812 h
CCC(C)C(N)C(=O)OC(C)OC(=O)C1=CC(N=C(N)N)C(NC(C)=O)C(C(O)C(O)CO)O1 (mixture of isomers) |  | hydrochlorate buffer | pH 1.2, 37 °C, chemical hydrolysis | > 4 h
Nc1ncnc2c1ncn2C1C=CC(CO)O1 (stereo not drawn) | glycosidic bond acid hydrolysis, HPLC | aqueous buffer | pH 2 | ~0.333 h
CCC(CC)O[C@@H]1C=C(C(=O)OC(OC(=O)[C@@H](N)C(C)C)C(C)C)C[C@H](NC(=N)N)[C@H]1NC(C)=O (single isomer, unassigned) |  | acetate buffer with pancreatin | pH 4.5 | stable
C#CCOCCOCCOCCOCCn1cc(C(ONC(=O)/C=C/C(C)=C/C2(C)Oc3cc(N(C)C)ccc3C2=O)(c2ccccc2)c2ccccc2)nn1 (stereo not drawn) | HPLC | aqueous buffer | pH 5.0 | stable
O=C(Nc1ccc(-c2noc(C3CC3)n2)c(Cl)c1)c1cccs1 | plasma stability | mouse plasma | 5 µM, 37 °C | 1.48 h and 1.49 h
